Assay results of several laboratories.
Every numbered part comes from another study and shows a few of its results, in no order. Values joined by “and” are separate records of one study, mostly repeats; a detail may differ.

Series 1 — observed: thermal unfolding; method: differential scanning fluorimetry; concentration: 5.5 µM; reading: higher = more unfolded
SMILES: C[C@@H]1CN(c2ccc(-c3cc(C(=O)NCCOCCOCCOCCOCCOCCOCCNC(=O)/C=C/c4[nH]cc(C(=O)N[C@@H](CC(N)=O)c5ccc(F)c(Cl)c5)c4-c4ccc(Cl)cc4F)ccc3F)cc2NC(=O)c2ccc(F)cc2C(F)(F)F)C[C@H](C)N1C
WDR5: WD repeat-containing protein 5 (WDR5, Homo sapiens, UniProt P61964)
DCAF1: DDB1- and CUL4-associated factor 1 (DCAF1, Homo sapiens, UniProt Q9Y4B6)
UniProt Q9Y4B6, sequence (whole entry, looked up): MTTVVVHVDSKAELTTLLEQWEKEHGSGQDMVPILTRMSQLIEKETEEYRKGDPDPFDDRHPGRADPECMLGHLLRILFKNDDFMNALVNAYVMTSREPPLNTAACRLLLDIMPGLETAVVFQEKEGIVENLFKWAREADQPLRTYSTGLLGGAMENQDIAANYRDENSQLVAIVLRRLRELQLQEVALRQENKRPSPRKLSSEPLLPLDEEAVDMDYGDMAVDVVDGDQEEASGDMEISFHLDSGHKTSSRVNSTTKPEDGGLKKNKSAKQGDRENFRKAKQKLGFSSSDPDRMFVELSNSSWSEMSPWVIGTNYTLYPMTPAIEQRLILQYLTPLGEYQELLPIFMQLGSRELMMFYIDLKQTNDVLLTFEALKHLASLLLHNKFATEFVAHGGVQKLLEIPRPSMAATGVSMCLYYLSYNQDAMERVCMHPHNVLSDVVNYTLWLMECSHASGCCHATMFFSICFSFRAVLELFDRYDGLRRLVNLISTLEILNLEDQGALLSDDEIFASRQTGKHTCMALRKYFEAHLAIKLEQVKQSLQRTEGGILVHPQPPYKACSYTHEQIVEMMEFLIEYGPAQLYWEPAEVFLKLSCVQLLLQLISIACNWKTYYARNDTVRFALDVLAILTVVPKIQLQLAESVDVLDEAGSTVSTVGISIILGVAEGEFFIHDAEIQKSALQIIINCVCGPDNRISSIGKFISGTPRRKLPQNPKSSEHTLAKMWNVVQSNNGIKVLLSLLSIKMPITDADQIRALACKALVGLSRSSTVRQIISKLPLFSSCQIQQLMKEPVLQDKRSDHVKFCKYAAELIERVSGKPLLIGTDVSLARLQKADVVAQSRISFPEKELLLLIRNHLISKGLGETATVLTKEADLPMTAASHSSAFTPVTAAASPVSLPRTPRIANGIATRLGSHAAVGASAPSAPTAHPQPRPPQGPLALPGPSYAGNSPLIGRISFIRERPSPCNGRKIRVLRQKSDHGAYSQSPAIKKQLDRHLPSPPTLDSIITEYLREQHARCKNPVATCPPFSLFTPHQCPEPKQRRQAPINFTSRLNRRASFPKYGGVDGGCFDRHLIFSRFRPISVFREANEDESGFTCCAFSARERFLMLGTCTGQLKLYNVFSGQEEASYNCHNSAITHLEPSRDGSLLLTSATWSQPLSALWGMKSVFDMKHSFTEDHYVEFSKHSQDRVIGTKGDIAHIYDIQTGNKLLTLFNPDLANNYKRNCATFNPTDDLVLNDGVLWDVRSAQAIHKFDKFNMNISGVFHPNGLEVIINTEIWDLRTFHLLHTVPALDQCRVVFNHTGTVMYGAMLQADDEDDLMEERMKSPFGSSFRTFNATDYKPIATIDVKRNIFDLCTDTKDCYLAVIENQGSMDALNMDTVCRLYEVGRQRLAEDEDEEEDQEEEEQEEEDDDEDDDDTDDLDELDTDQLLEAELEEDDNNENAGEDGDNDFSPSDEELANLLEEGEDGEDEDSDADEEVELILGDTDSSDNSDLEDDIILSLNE
target | temperature | SYPRO Orange fluorescence
WDR5 | 84.61 °C | 62700 a.u.
DCAF1 | 58.41 °C | 40400 a.u.
DCAF1 | 55.21 °C | 27600 a.u.
WDR5 | 73.61 °C | 42600 a.u.
WDR5 | 94.41 °C | 48900 a.u.
WDR5 | 74.41 °C | 46100 a.u.
WDR5 | 78.41 °C | 61400 a.u.

Series 2 — mode: degrader; method: automated immunoblot (Jess)
Compound: Cc1ccc(O)c(C)c1-c1cnc2[nH]c(-c3cnc(N4CCC5(CC4)CC(N4CCN(c6ccc(N[C@H]7CCC(=O)NC7=O)cc6F)CC4)CO5)nc3)cc2c1C#N (single isomer, unassigned)
Target: Membrane-associated tyrosine- and threonine-specific cdc2-inhibitory kinase (PKMYT1, Homo sapiens, UniProt Q99640)
Target sequence (Q99640 1-499): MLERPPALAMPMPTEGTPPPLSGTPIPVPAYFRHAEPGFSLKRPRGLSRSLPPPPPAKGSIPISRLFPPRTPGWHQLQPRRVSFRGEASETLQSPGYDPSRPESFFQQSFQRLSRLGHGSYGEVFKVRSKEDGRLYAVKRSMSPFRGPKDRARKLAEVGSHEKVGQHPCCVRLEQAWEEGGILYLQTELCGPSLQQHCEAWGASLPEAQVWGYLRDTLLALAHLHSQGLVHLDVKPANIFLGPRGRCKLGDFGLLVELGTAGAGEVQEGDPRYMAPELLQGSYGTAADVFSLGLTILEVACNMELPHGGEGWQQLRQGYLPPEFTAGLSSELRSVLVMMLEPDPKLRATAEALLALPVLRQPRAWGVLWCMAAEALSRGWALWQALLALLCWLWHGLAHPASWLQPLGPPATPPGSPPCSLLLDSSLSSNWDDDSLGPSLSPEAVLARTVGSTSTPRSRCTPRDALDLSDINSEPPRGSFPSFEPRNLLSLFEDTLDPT
cells | concentration | time | degradation
HCC1569 | 1 nM | 2 h | 12.7%
 | 37.04 nM | 24 h | 86.7% and 90%
HCC1569 | 1 nM | 4 h | 41.2%
 | 4.12 nM | 24 h | 81.5% and 81.4%
HCC1569 | 111.11 nM | 24 h | 90.1%

Series 3 — cell line: Gaucher fibroblasts L444P/L444P; method: 4-MUG hydrolysis, cell lysate; concentration: 1 µM; reference: DMSO
SMILES | GCase activity
Ic1ccc(Nc2nc(NCCN3CCOCC3)nc(N3CC4CCC(C3)O4)n2)cc1 | 102% and 104% and 106%
Ic1ccc(Nc2nc(NCCc3c[nH]c4ccccc34)nc(NCCN3CCOCC3)n2)cc1 | 90.4% and 94.4% and 98.8% and 88.7%
Cc1ccc(Nc2nc(NCCN3CCOCC3)nc(N3CCOCC3)n2)cc1 | 99.5% and 112% and 107% and 114% and 109% and 101%
Ic1ccc(Nc2nc(NCCN3CCOCC3)nc(N3CCCCC3)n2)cc1 | 99.9% and 98.2% and 93% and 101% and 100%
CCOc1ccc2nc(Sc3nc(Nc4ccc(OC)cc4)nc(N4CCOCC4)n3)sc2c1 | 122% and 123% and 124% and 119%
Ic1ccc(Nc2nc(NCCN3CCOCC3)nc(N3CC4CC3CO4)n2)cc1 (stereo not drawn) | 104% and 100% and 95.5% and 96.5% and 98.2% and 98%
CCN(CC)c1nc(NCCN2CCOCC2)nc(Nc2ccc(I)cc2)n1 | 101% and 88% and 89.2% and 88.7%

Series 4 — observed: enzyme activity; mode: inhibitor; method: Ub-TR-FRET; sample: HECT domain; concentration: 11.11 µM; reading: higher = more chain formation
Target: E3 ubiquitin-protein ligase NEDD4, HECT domain (Homo sapiens, UniProt P46934)
Target sequence (P46934 938-1319, limits assumed): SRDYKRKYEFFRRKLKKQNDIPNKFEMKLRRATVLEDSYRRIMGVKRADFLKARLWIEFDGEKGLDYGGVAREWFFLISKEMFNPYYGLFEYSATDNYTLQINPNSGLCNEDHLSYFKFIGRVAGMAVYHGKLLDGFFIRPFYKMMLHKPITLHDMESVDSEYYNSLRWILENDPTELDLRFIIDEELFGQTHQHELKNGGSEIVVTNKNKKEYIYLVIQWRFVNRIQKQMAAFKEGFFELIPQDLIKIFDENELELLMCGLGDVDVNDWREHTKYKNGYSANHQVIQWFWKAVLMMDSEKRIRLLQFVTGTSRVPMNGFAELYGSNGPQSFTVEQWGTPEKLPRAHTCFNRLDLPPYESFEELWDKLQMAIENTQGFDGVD
Compound | ubiquitin chain formation AUC
Cl.NC(=O)/C=C/CNCCCN1c2ccccc2CCc2ccc(Cl)cc21 | 117000 a.u. and 115000 a.u. and 118000 a.u.
CCOC(=O)/C=C/CNCCCN1c2ccccc2CCc2ccc(Cl)cc21 | 7160 a.u. and 6740 a.u. and 5640 a.u.
CONC(=O)/C=C/CNCCCCN1c2ccccc2CCc2ccc(Cl)cc21.O=C(O)/C=C\C(=O)O | 5790 a.u. and 6920 a.u. and 6640 a.u. and 5930 a.u. and 5350 a.u. and 6860 a.u.
CCOC(=O)/C=C/CNCCCCN1c2cc(Cl)ccc2C(=O)N(C)c2ccccc21.O=C(O)/C=C\C(=O)O | 9960 a.u. and 9590 a.u. and 10700 a.u.
CNC(=O)/C=C/CNCCCN1c2ccccc2CCc2ccc(Cl)cc21.Cl | 111000 a.u. and 108000 a.u. and 110000 a.u.
CCOC(=O)/C=C/CN(CC)CCCCN1c2ccccc2CCc2ccc(Cl)cc21.O=C(O)/C=C\C(=O)O | 15100 a.u. and 13100 a.u. and 13400 a.u. and 16900 a.u. and 14300 a.u.
CCOC(=O)/C=C/CNCCCCN1c2cc(Cl)ccc2COc2ccccc21.O=C(O)/C=C\C(=O)O | 11100 a.u. and 10900 a.u.
C=CC(=O)NCCCN1c2ccccc2CCc2ccc(Cl)cc21 | 182000 a.u. and 184000 a.u.
